Measured values pooled from the literature.
Protocols differ between the studies behind these lines. ± gives the spread as reported. Converted amounts (≈) assume the structure as drawn.

Compound	test	test system	conditions	how to read	endpoint	result
CC[C@H](C)[C@H](NC(=O)CNC(=O)[C@H](C)NC(=O)[C@H](CC(=O)O)NC(=O)[C@H](CO)NC(=O)[C@H](C)NC(=O)[C@H](CC(C)C)NC(=O)[C@H](CCCCN)NC(=O)[C@H](CCCCN)NC(=O)[C@H](CCSC)NC(=O)[C@H](CC(N)=O)NC(=O)[C@H](Cc1ccccc1)NC(=O)[C@H](CC(=O)O)NC(=O)[C@@H](N)CCSC)C(=O)N[C@@H](Cc1c[nH]c2ccccc12)C(=O)N[C@@H](Cc1ccccc1)C(=O)N[C@H](C(=O)N[C@@H](CCCNC(=N)N)C(=O)N[C@@H](C)C(=O)N[C@H](C(=O)N[C@@H](CCC(N)=O)C(=O)N[C@@H](Cc1ccccc1)C(=O)N[C@H](C(=O)N[C@@H](CCC(=O)O)C(=O)N[C@@H](CCC(=O)O)C(=O)N[C@@H](CCCCN)C(=O)N[C@@H](Cc1ccccc1)C(=O)NCC(=O)N[C@@H](CCC(N)=O)C(=O)N[C@@H](C)C(N)=O)[C@@H](C)O)C(C)C)[C@@H](C)O		water			folding free energy	5.99 kcal/mol
Cc1cc(-c2ccc(C(=O)[C@@H]3CCCC[C@H]3C(=O)Nc3cnn4c3C(=O)NCC4)cc2)[nH]n1		human, faeces	oral, 200 mg, 0-72 h	reference: dose	cumulative recovery of radioactivity	49.8%
CC(=O)N[C@@H](CC(C)C)C(=O)N[C@H](C(=O)N[C@@H](Cc1ccccc1)C(=O)N[C@@]1(C)CCCC=CCCC[C@@](C)(C(=O)N[C@@H](CCC(N)=O)C(=O)N[C@@H](CC(C)C)C(=O)N[C@H](C(=O)N[C@@H](CO)C(N)=O)[C@@H](C)O)NC(=O)[C@H](Cc2c[nH]c3ccccc23)NC(=O)[C@H](Cc2ccc(O)cc2)NC(=O)[C@H](CCC(=O)O)NC1=O)[C@@H](C)O	reversed-phase HPLC, C18		N-acetylated peptide		HPLC retention time	16.6 min
O=C(Nc1cnccc1-c1ccc([18F])cc1)c1ccnc(NC(=O)C2CC2)c1	ex vivo biodistribution, gamma counting	GSK-3β overexpressing transgenic mouse, late stage, pancreas	intravenous, 120 min post-injection, added: tariquidar 15 mg/kg iv, at least 120 min before tracer		mean SUV	0.73
N#Cc1ccnc(N2C(=O)CC[C@H]2C(=O)N(c2cc(F)cc(F)c2)[C@H](C(=O)NC2CC(F)(F)C2)c2ccccc2Cl)c1 (stereo in doubt)		cynomolgus monkey, plasma	intravenous, 1 mg/kg		clearance	3.67 mL/min/kg
O=C(Nc1ccccc1)C1(C(F)(F)F)CCC1		PBS	2 h, pH 7.4, 25 °C, 2% DMSO		solubility	403 µM (≈ 98 µg/mL)
CN1CCCNC(=O)c2cccc(c2)C(=O)NCCCN(C)CCCNc2cccc3c2C(=O)c2cccc(c2C3=O)NCCC1		nude mice, serum	dose not given, 10 days		CRE	0.13 U/L
CC[C@H](C)[C@@H]1NC(=O)[C@H](Cc2ccc(O)cc2)NC(=O)CCCSC[C@@H](C(=O)N(CC(=O)N[C@@H](CC(C)C)C(=O)NCC(N)=O)Cc2ccc(F)cc2)NC(=O)[C@H](CC(N)=O)NC(=O)[C@H](CCC(N)=O)NC1=O		healthy women, plasma	intranasal, 300 µg single dose		terminal half-life	36 min
Cc1nc(N)nc2c1C(=O)N[C@@H](c1ccc(F)cc1-c1cccc(O[11CH3])n1)C2	ex vivo biodistribution	mice, MDA-MB-231 subcutaneous xenograft, muscle	60 min post-injection, baseline, vehicle pre-treatment		SUV	0.6 ± 0.04
C=C(NC(=O)c1csc(-c2nc3c(cc2O)-c2nc(cs2)C(=O)NC(C(C)O)C(=O)NC(=C(C)OC)c2nc(cs2)C(=O)NC2c4nc(cs4)C(=O)NC(COC(=O)c4c5c6c(cccc6n4O)COC(=O)C(OC4CC(C)(O)C(N(C)C)C(C)O4)C2OC5)c2nc-3cs2)n1)C(N)=O (stereo not shown)		female cynomolgus monkey, plasma	intravenous, 3 mg/kg, single dose, infusion		AUC(0-t)	28000 ng·h/mL
CC[C@H](C)[C@H](NC(=O)[C@H](Cc1ccccc1)NC(=O)[C@H](CCC(=O)O)NC(=O)[C@H](CCCCN)NC(=O)[C@H](C)NC(=O)[C@H](C)NC(=O)[C@H](CCC(N)=O)NC(=O)CNC(=O)[C@H](CCC(=O)O)NC(=O)[C@H](CC(C)C)NC(=O)[C@H](Cc1ccc(O)cc1)NC(=O)[C@H](CO)NC(=O)[C@H](CO)NC(=O)[C@@H](NC(=O)[C@H](CC(=O)O)NC(=O)[C@H](CO)NC(=O)[C@@H](NC(=O)[C@H](Cc1ccccc1)NC(=O)[C@@H](NC(=O)CNC(=O)[C@H](CCC(=O)O)NC(=O)[C@H](C)NC(=O)[C@@H](N)Cc1c[nH]cn1)[C@@H](C)O)[C@@H](C)O)C(C)C)C(=O)N[C@@H](C)C(=O)N[C@@H](Cc1c[nH]c2ccccc12)C(=O)N[C@@H](CC(C)C)C(=O)N[C@H](C(=O)N[C@@H](CCCNC(=N)N)C(=O)NCC(=O)N[C@@H](CCCNC(=N)N)C(=O)NCC(=O)O)C(C)C	LC-MS/MS	ICR mice, male, plasma	intravenous bolus, 1 mg/kg		AUC extrapolated percentage	0.59%
COc1cccc(OC)c1-c1cc(C(=O)NC2(C(=O)O)C3CC4CC(C3)CC2C4)nn1-c1ccc(C(=O)N(C)CCOCCOCCN(C)C(=O)[C@H](CCCCNC(=O)[C@H](CC(C)C)NC(=O)C2OC2C(=O)O)NC(=O)CN2CCN(CC(=O)[O-])CCN(CC(=O)[O-])CCN(CC(=O)[O-])CC2)cc1C(C)C.[177Lu+3] (mixture of isomers)		mouse, HT-29 xenograft	168 h post injection, biodistribution	reference: tumour over lung uptake	tumour-to-lung ratio	1.65
CCCCC/C=C\CCCO[Si](CCCN(C)C)(OCCC/C=C\CCCCC)OCCC/C=C\CCCCC			pH 5.5, formulated		zeta potential	2.72 mV

Excerpt of the above:
Compound	test	test system	conditions	how to read	endpoint	result
O=C(Nc1ccccc1)C1(C(F)(F)F)CCC1		PBS	2 h, pH 7.4, 25 °C, 2% DMSO		solubility	403 µM (≈ 98 µg/mL)
COc1cccc(OC)c1-c1cc(C(=O)NC2(C(=O)O)C3CC4CC(C3)CC2C4)nn1-c1ccc(C(=O)N(C)CCOCCOCCN(C)C(=O)[C@H](CCCCNC(=O)[C@H](CC(C)C)NC(=O)C2OC2C(=O)O)NC(=O)CN2CCN(CC(=O)[O-])CCN(CC(=O)[O-])CCN(CC(=O)[O-])CC2)cc1C(C)C.[177Lu+3] (mixture of isomers)		mouse, HT-29 xenograft	168 h post injection, biodistribution	reference: tumour over lung uptake	tumour-to-lung ratio	1.65
